Measurements of several laboratories.
Lines come from different studies, so protocols differ. ± marks the error that the study gave.
UniProt P08684, sequence (whole entry, unmodified, looked up): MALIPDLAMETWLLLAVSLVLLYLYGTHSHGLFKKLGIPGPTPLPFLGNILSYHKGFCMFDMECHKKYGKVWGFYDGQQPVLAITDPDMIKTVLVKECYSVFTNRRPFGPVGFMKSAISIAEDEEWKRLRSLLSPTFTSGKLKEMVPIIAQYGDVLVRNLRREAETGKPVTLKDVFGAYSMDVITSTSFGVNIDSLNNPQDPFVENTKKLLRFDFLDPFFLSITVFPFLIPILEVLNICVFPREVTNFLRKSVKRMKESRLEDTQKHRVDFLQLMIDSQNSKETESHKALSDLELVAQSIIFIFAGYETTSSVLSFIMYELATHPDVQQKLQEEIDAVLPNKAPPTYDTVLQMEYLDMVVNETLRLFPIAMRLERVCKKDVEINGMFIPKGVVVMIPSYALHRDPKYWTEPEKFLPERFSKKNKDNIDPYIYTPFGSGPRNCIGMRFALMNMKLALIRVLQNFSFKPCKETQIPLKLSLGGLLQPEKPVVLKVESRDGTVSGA

`CNCCCn1c2ccc([N+](=O)[O-])cc2c(=O)n1Cc1ccccc1` gave a selectivity index of 1 (Leishmania amazonensis; promastigotes, MHOM/BR/77/LTB0016; reference: CC50 macrophages over IC50 promastigotes).
The AUC(0-t) of `Cn1c(=O)oc2ccc(-c3ccc(CC(C#N)NC(=O)C4CNCCCO4)c(F)c3)cc21` (stereo not drawn) is reported as 3340 ng·h/mL (human, fed, plasma; 40 mg single dose, geometric mean).
Under “koff fast phase”, `COc1ccc2cc(NC(=O)c3cc(-c4cccnc4)nc4ccccc34)ccc2c1` is recorded as 0.07 s⁻¹ (Cytochrome P450 3A4 (CYP3A4, Homo sapiens, UniProt P08684, S18F); binding, surface plasmon resonance; 10 °C).
For `CCOC(=O)CN1CCN(CC(=O)OCC)CCN(Cc2cc(-c3nc4ccccc4s3)cc(OC)c2O)CC1`, the pCu was 10.6 (copper(II) ion; metal chelation, spectrophotometric titration; aqueous solution; 50 µM, pH 7.4, together with: Cu(II) 50 µM; higher = stronger binding).
`O=C(O)CCC(NP(=O)(O)OCCC[C@@H](NC(=O)CC[C@H](NC(=O)CCCCCNC(=O)c1ccc([18F])cc1)C(=O)O)C(=O)O)C(=O)O` (stereo partly drawn) has a tracer uptake of 2.33 %ID/g (CWR22Rv1 tumour model; host not given, tumour; 4 h, tumour-bearing).
`CCCn1c2ccc([N+](=O)[O-])cc2c(=O)n1Cc1ccccc1` has a selectivity index of 6 (Leishmania amazonensis; promastigotes, MHOM/BR/77/LTB0016; reference: CC50 macrophages over IC50 promastigotes).
`O=C1CC(c2ccc(O)cc2)Oc2cc(O)cc([O][Ga+][O]c3cc(O)cc4c3C(=O)CC(c3ccc(O)cc3)O4)c21` (stereo not drawn) gave a protective concentration of about 1 µg/mL (Pseudomonas aeruginosa; A549, PAO1; 2 h).
`CC(=O)N[C@H](C(=O)N[C@H](C(=O)N[C@@H](CCCNC(=N)N)C(=O)N1Cc2ccccc2C[C@H]1C(=O)N[C@@H](Cc1ccccc1)C(N)=O)C1CCCCC1)C(C)C` gave a cytokine level of 13500 ± 14200 pg/mL (human PBMC; Bio-Plex multiplex, refers to: IL-8; 500 µg/mL, 24 h).
With `[64Cu+2].c1ccc(CNCc2ccc(CN3CCCN4CCNCCCN(CC4)CC3)cc2)nc1` the tissue uptake was 2.38 ± 0.51 %ID/g (CXCR4; NOD/SCID mouse, U87 and U87-stb-CXCR4 xenografts, stomach; iv, 30 min, ex vivo).
With `O=c1c2cc([N+](=O)[O-])ccc2n(CCO)n1Cc1ccccc1` the selectivity index was 12 (Leishmania amazonensis; promastigotes, MHOM/BR/77/LTB0016; reference: CC50 macrophages over IC50 promastigotes).
With `O=C(CCC(=O)OCCNC(=O)[C@@H](Cc1ccccc1)NC(=O)[C@@H](Cc1ccccc1)NC(=O)CCNc1ccc([N+](=O)[O-])c2nonc12)NCCS(=O)(=O)O` the conversion was over 50% (porcine liver esterase; substrate; PBS; 100 µM, 24 h, together with: esterase 1 U/mL).
The selectivity index of `NC(=O)CCCn1c2ccc([N+](=O)[O-])cc2c(=O)n1Cc1ccccc1` is reported as 10 (Leishmania amazonensis; promastigotes, MHOM/BR/77/LTB0016; reference: CC50 macrophages over IC50 promastigotes).
For `[64Cu+2].c1cnc(CNCc2ccc(CN3CCCN4CCNCCCN(CC4)CC3)cc2)nc1`, the tissue uptake was 0.3 ± 0.02 %ID/g (CXCR4; NOD/SCID mouse, U87 and U87-stb-CXCR4 xenografts, muscle; iv, 240 min, ex vivo).
`C#CCn1c2ccc([N+](=O)[O-])cc2c(=O)n1Cc1ccccc1` gave a selectivity index of 5 (Leishmania amazonensis; promastigotes, MHOM/BR/77/LTB0016; reference: CC50 macrophages over IC50 promastigotes).
`CCN(CC)c1ccc2c(-c3ccc(S(=O)(=O)NCCNC(=O)CN4CCN(CC(=O)[O-])CCN(CC(=O)O)CCN(CC(=O)[O-])CC4)cc3S(=O)(=O)[O-])c3ccc(=[N+](CC)CC)cc-3oc2c1.[64Cu+2]` gave a tracer uptake of 4.4 %ID/g (U-87 MG tumour model; host not given, kidney; 4 h, tumour-bearing).

For quick reference, copied from above:
Under “koff fast phase”, `COc1ccc2cc(NC(=O)c3cc(-c4cccnc4)nc4ccccc34)ccc2c1` is recorded as 0.07 s⁻¹ (Cytochrome P450 3A4 (CYP3A4, Homo sapiens, UniProt P08684, S18F); binding, surface plasmon resonance; 10 °C).
With `O=c1c2cc([N+](=O)[O-])ccc2n(CCO)n1Cc1ccccc1` the selectivity index was 12 (Leishmania amazonensis; promastigotes, MHOM/BR/77/LTB0016; reference: CC50 macrophages over IC50 promastigotes).
